Measured values from different studies.
Each line is one published result; not all experiments were run side by side. Values joined by “and” are separate records of one study, mostly repeats; a detail may differ. ± marks the error that the study gave. In brackets after ≈: the same amount, converted by molar mass.
UniProt Q9BYP7, sequence (whole entry, looked up): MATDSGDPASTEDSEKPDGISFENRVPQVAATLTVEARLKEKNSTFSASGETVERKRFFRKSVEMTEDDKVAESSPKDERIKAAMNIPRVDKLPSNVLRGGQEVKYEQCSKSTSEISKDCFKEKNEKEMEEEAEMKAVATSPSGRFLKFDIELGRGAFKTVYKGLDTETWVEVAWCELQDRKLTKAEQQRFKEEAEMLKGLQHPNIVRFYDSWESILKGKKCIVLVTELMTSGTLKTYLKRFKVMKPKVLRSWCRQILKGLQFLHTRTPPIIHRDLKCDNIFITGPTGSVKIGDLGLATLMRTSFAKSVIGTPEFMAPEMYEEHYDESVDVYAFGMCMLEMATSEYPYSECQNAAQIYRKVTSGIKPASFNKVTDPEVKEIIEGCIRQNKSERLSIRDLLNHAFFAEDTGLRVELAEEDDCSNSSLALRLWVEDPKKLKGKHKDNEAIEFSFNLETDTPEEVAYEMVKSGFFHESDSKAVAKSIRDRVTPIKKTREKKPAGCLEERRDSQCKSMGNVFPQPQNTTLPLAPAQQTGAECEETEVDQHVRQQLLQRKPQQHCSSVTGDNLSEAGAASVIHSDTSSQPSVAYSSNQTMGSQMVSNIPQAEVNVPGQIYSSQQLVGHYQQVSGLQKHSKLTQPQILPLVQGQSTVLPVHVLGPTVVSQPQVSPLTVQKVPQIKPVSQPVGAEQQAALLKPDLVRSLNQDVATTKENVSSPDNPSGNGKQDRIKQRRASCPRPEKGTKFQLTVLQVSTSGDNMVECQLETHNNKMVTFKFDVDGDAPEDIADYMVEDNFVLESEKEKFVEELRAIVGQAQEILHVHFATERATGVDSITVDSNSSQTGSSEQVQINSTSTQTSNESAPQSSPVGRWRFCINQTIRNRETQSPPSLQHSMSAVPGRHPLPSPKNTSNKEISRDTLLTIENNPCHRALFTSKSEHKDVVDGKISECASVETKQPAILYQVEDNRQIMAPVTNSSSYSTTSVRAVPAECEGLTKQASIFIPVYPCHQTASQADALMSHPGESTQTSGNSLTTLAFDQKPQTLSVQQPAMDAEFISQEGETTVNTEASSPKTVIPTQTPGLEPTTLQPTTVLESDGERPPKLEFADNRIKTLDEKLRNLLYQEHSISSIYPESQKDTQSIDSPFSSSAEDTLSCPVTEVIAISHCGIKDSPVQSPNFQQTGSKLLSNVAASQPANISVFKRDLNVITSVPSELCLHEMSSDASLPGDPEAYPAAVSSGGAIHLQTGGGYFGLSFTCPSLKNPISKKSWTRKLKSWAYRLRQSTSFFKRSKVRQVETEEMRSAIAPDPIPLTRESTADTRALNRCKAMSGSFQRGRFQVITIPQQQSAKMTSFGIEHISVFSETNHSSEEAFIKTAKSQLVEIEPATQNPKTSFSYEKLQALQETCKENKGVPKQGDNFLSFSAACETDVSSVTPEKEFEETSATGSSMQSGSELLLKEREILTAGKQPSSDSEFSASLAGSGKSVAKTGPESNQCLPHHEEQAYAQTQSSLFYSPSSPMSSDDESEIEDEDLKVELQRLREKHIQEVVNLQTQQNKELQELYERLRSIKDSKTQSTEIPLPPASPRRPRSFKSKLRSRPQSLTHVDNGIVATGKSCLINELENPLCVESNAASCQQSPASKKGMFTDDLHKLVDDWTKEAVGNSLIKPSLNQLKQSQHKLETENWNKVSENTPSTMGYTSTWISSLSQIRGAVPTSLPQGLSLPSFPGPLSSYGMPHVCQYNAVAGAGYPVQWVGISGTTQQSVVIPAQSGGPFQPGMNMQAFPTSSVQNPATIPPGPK
UniProt O60307, sequence (whole entry, looked up): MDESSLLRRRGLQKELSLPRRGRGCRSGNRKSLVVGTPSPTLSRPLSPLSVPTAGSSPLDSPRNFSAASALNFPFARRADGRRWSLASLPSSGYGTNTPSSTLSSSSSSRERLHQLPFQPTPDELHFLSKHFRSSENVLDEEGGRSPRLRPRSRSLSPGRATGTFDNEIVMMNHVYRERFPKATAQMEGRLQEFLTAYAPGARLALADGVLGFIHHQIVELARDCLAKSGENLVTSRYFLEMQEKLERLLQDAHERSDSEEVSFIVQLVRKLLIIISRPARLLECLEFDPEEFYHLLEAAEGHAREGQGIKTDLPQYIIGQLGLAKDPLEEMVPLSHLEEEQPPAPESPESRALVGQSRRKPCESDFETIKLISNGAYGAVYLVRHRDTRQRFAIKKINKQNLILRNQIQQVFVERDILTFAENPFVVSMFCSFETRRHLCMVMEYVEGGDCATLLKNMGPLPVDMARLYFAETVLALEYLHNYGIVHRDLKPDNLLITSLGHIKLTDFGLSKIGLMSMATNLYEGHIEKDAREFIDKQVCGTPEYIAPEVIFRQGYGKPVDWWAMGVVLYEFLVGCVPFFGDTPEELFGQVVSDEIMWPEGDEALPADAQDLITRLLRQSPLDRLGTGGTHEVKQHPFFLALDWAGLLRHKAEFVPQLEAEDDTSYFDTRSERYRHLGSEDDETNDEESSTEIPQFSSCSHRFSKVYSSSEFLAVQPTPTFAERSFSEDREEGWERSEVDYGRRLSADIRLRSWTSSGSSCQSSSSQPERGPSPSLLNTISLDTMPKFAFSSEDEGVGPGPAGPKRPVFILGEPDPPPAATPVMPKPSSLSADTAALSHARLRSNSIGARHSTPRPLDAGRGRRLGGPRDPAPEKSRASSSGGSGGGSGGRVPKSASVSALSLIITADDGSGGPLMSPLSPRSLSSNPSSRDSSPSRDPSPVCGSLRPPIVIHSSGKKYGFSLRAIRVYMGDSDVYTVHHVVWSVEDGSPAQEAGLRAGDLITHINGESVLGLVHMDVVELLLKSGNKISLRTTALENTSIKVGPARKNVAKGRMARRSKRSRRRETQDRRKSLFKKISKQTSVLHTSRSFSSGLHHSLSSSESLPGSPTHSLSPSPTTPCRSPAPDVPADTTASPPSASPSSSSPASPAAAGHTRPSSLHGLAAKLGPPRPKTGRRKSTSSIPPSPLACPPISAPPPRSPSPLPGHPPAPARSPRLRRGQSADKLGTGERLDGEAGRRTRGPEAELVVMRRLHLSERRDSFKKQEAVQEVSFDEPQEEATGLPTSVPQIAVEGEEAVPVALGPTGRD
UniProt P51813, sequence (whole entry, looked up): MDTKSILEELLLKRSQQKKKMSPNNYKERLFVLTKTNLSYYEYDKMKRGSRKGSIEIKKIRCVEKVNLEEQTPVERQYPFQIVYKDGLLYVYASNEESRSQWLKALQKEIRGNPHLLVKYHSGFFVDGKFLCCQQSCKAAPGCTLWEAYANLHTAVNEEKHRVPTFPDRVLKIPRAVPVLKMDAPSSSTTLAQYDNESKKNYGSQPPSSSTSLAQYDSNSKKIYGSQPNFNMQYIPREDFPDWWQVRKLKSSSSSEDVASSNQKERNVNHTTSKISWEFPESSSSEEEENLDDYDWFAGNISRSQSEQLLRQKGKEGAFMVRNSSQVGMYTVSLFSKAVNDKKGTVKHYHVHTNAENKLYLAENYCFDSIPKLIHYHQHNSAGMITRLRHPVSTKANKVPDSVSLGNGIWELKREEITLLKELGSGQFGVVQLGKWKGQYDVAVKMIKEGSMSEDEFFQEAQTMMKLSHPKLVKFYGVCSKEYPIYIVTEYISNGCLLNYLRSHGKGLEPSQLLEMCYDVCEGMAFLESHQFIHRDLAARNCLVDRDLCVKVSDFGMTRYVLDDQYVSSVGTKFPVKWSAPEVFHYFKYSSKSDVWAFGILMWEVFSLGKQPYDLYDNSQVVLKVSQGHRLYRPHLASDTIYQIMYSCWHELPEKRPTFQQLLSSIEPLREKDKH

N#Cc1ccc2c(c1)[C@H]1CCCN(C(=O)c3ccc4[nH]cnc4c3)[C@H]1C2  median ACTH level (human; 240 mg, day 7): 5.2 pmol/L
CC(C)C[C@H](NC(=O)C[C@H](O)[C@H](CC(C)C)NC(=O)[C@H](Cc1c[nH]cn1)NC(=O)CNC(=O)[C@@H](NC(=O)[C@H](C)NC(=O)[C@H](Cc1c[nH]c2ccccc12)NC(=O)[C@H](CCC(N)=O)NC(=O)[C@@H](Cc1ccccc1)NC(=O)COCCOCCNC(=O)CN1CCN(CC(=O)O)CCN(CC(=O)O)CCN(CC(=O)O)CC1)C(C)C)C(N)=O [lutetium-177 labelled]  tissue uptake (female BALB/c nu/nu mice, kidneys; intravenous, 50 pmol, 24 h): 1.1 ± 0.3 %ID/g
OC(CCN1CCCCC1)(c1ccccc1)C1CC2C=CC1C2 (stereo not drawn)  change in EEG Beta1-power Pz-O2 (resting-state EEG; healthy elderly humans; oral, 4 mg, eyes open, LS mean; relative to: baseline): -5%
Cc1cnc(NC2CCOCC2)nc1-n1cnc(C(=O)NC(CN)c2cc(F)cc(Cl)c2)c1 (stereo not drawn)  G1 phase cells (Rec1; flow cytometry; 1 µM, 24 h): 50.1%
CC(C)(C(=O)N1CCOc2c(C#N)cncc2C1)C(F)F  subjects with TEAE (item: blood and lymphatic disorders; human, both sexes; oral, 15 mg twice daily, 14 days, multiple ascending dose): 12.5%
CC(=O)NC[C@H]1CN(c2ccc(N3CCOCC3)c(F)c2)C(=O)O1  MIC50 (Enterococcus faecalis; vancomycin-intermediate, 10 isolates; serum 25%): 2 µg/mL (≈ 5.93 µM)
Oc1ccccc1-c1n[nH]cc1-c1ccnc2ccccc12  log2 fold change (CAK1 (Candida albicans); kinase binding, MIB/MS competition; Candida albicans lysate; 1 µM; relative to: DMSO): -0.03
COc1cc(F)ccc1-c1ncnc(Nc2cccc(C[S@](C)(=N)=O)c2)n1  remaining activity (Serine/threonine-protein kinase WNK3 (WNK3, Homo sapiens, UniProt Q9BYP7); kinase activity; 10 µM, added: 10 µM ATP): 91%
CC(=O)N(C)[C@H]1CCN(C(=O)c2cnc3c(c2)C[C@](C)(c2ccc(F)cc2)N3)C1  pantetheine increase (vanin activity; LC-MS/MS; human, plasma; 30 mg, 4 h post-dose, median; relative to: baseline): 1410%
CC[C@@H]1[C@H](F)C(=O)N[C@@H]1COc1nccc2cc(C(N)=O)c(OC)cc12  inhibition (Microtubule-associated serine/threonine-protein kinase 3 (MAST3, Homo sapiens, UniProt O60307); ATP-site probe binding, ActivX profiling; THP-1 cell lysate; 0.01 mM, Lys2 site): 11.4%
Cc1cc(OC(C)C)ccc1C(=O)C(C)(C)NC(=O)c1sccc1C  inhibition (Botrytis cinerea; germ tube elongation; B05.10; 0.3 µg/mL): 94.4 ± 3.6%
O=c1[nH]c2ncsc2c(=O)n1O  growth inhibition (Brassica rapa; 1500 g/ha, 21 days, pre-emergence, glasshouse pot): 65.7%
CN1CCN(c2ccc(Nc3ncc4cc(C#N)c(=O)n(C5CCCC5)c4n3)cc2)CC1  IC50 (Cytoplasmic tyrosine-protein kinase BMX (BMX, Homo sapiens, UniProt P51813)): 257 nM
CCn1cc(-c2cc(Cn3ccnc3)cc3c2CCN([C@H](c2cc(OC)ccn2)C2CC2)C3=O)c(C(F)(F)F)n1  EC50 (LS174T; cell growth, inhibitor; 120 h): 114 nM
CC(C)C[C@H](NC(=O)C[C@H](O)[C@H](CC(C)C)NC(=O)[C@H](Cc1c[nH]cn1)NC(=O)CNC(=O)[C@@H](NC(=O)[C@H](C)NC(=O)[C@H](Cc1c[nH]c2ccccc12)NC(=O)[C@H](CCC(N)=O)NC(=O)[C@@H](Cc1ccccc1)NC(=O)COCCOCCNC(=O)CCC(C(=O)O)N1CCN(CC(=O)O)CCN(CC(=O)O)CCN(CC(=O)O)CC1)C(C)C)C(N)=O (stereo partly drawn) [lutetium-177 labelled]  tissue uptake (BALB/c nu/nu mice, muscle; intravenous, 50 pmol, 1 h, added: PA 300 µg): 0.14 ± 0.07 %ID/g
Cc1cccc(-c2[nH]c(CNc3ccccc3F)nc2-c2ccc3ncnn3c2)n1  IFN-gamma production (CD8+ T cells from myeloma patient; ELISA; human; 1 µM, 192 h): 1.45% and 1.23% and 1.35% and 1.56% and 1.58% and 1.08%
COc1cnc2cccc(N3CCc4c(cc(Cn5ccnc5C)cc4-c4cn(C)nc4C(F)(F)F)C3=O)c2c1  EC50 (Rec1; cell growth, inhibitor; 120 h): 9700 nM
Cc1cc(F)cc2c(CCC(=O)N[C@@H]3C(=O)NC[C@H]3O)c(-c3ccc(F)cc3)[nH]c12  UACR (mice, APOL1 G2, single copy; oral, 30 mg/kg twice daily, day 7, dosing from day 6, added: IFNγ plasmid injection): 5530 µg/mg
Cn1cc(-c2ccc(-c3cncc(Cl)c3N3CCC4(CCNC4=O)CC3)cc2)cn1  fold change in expression (COLO 205; microarray, item: PDGFB; concentration not given, 2 h; relative to: untreated cells): 2.86
COC(=O)[C@H]1[C@@H](O)[C@@]2(O)c3c(OC)cc(O[C@@H]4O[C@@H]([C@H](O)CO)CO[C@H]4OC)cc3O[C@@]2(c2ccc(OC)cc2)[C@@H]1c1ccccc1  inhibition (cap-dependent translation, inhibitor, firefly luciferase bicistronic reporter; Krebs-2 cell extract; concentration not given): inhibited
c1coc(-c2n[nH]cc2-c2ccnc3ccccc23)c1  log2 fold change (CAK1 (Candida albicans); kinase binding, MIB/MS competition; Candida albicans lysate; 10 µM; relative to: DMSO): -0.18
O=c1[nH]c2nc(-c3cccnc3)sc2c(=O)n1O  root length inhibition (Brassica rapa; 100 mg/mL, 72 h): 24%
CN[C@H](CC(C)C)C(=O)N[C@H]1C(=O)N[C@@H](CC(N)=O)C(=O)N[C@H]2C(=O)N[C@H]3C(=O)N[C@H](C(=O)N[C@H](C(=O)O)c4cc(O)cc(O)c4-c4cc3ccc4O)[C@H](O)c3ccc(c(Cl)c3)Oc3cc2cc(c3O[C@@H]2O[C@H](CO)[C@@H](O)[C@H](O)[C@H]2O[C@H]2C[C@](C)(N)[C@H](O)[C@H](C)O2)Oc2ccc(cc2Cl)[C@H]1O  MBC (Enterococcus faecalis; broth microdilution; compound-intermediate isolates): 4 µg/mL (≈ 2.76 µM)
CC(C)NCC(O)c1ccc(O)c(O)c1 (stereo not drawn)  sarcomere length (mouse ventricular cardiomyocytes; dose not given, 0.419 s): 1.76 µm

For quick reference, copied from above:
O=c1[nH]c2nc(-c3cccnc3)sc2c(=O)n1O  root length inhibition (Brassica rapa; 100 mg/mL, 72 h): 24%
CN[C@H](CC(C)C)C(=O)N[C@H]1C(=O)N[C@@H](CC(N)=O)C(=O)N[C@H]2C(=O)N[C@H]3C(=O)N[C@H](C(=O)N[C@H](C(=O)O)c4cc(O)cc(O)c4-c4cc3ccc4O)[C@H](O)c3ccc(c(Cl)c3)Oc3cc2cc(c3O[C@@H]2O[C@H](CO)[C@@H](O)[C@H](O)[C@H]2O[C@H]2C[C@](C)(N)[C@H](O)[C@H](C)O2)Oc2ccc(cc2Cl)[C@H]1O  MBC (Enterococcus faecalis; broth microdilution; compound-intermediate isolates): 4 µg/mL (≈ 2.76 µM)
CC(C)NCC(O)c1ccc(O)c(O)c1 (stereo not drawn)  sarcomere length (mouse ventricular cardiomyocytes; dose not given, 0.419 s): 1.76 µm
